Results pooled from the literature.

| SMILES | cell line | assay | conditions | measurement | result |
| --- | --- | --- | --- | --- | --- |
| O=C(Nc1nnc2n3c(nc(-c4ccc(Cl)cc4)c1-2)SCC3=O)c1ccccc1 | 786-0 | NCI60 SRB | 10 µM | growth percent | 98.4% |
| COc1ccc(OC)c(-c2nc3ccc(-c4nc5ccc(N6CCN(C)CC6)cc5[nH]4)cc3[nH]2)c1 | 786-0 | cell growth, NCI-60 SRB | 10 µM, 48 h | growth percent | 84.5% |
| COC(=O)c1ccc(N2CCN(C)CC2)c(NC(=O)c2cccc(OC)c2)c1 | OCI-Ly1 | – | 0.5 µM, 120 h | viability | 160% |
| Cn1cncc1C1=CN(c2ncnc3[nH]cnc23)CCS1 | 786-0 | – | renal cancer cell line | TGI | 40.7 µM |
| Cc1cc(C)n(-c2nc(-c3ccc(Cl)cc3)c3c(NC(=O)c4ccccc4)nnc-3[nH]2)n1 | 786-0 | NCI60 SRB | 10 µM | growth percent | 96.2% |
| Nc1ncnc2c1ncn2[C@@H]1C=C(CO)[C@@H](O)[C@H]1O | OCI-Ly1 | – | 0.5 µM, 120 h | viability | 2.84% |
| CCCCN1CCN(c2ccc3[nH]c(-c4ccc5[nH]c(-c6ccc(OCC)c(OCC)c6)nc5c4)nc3c2)CC1 | 786-0 | cell growth, NCI-60 SRB | 10 µM, 48 h | growth percent | -87.4% |
| C#C[C@@]1(O)[C@@H](CO)O[C@@H](n2cc(I)c3c(N)ncnc32)[C@@H]1O | 786-0 | cell growth, SRB | – | TGI | 3.24 µM |
| NNc1nc(-c2ccc(Cl)cc2)c2c(NC(=O)c3ccccc3)nnc-2[nH]1 | 786-0 | NCI60 SRB | 10 µM | growth percent | 98.5% |
| CCN(CC)c1ccc(C=NNC(=O)CSc2nc3ccccc3c(=O)n2Cc2ccc(S(N)(=O)=O)cc2)c(O)c1 | 786-0 | cell growth | NCI five-dose screen | TGI | > 100 µM |
| CCCN1CCN(c2ccc3nc(-c4ccc5nc(-c6cc(OC)ccc6OC)[nH]c5c4)[nH]c3c2)CC1 | 786-0 | cell growth, NCI-60 SRB | 10 µM, 48 h | growth percent | 101% |
| C#C[C@@]1(O)[C@@H](CO)O[C@@H](n2cc(F)c3c(N)ncnc32)[C@@H]1O | 786-0 | cell growth, SRB | – | TGI | 2.84 µM |

A few entries again:
| SMILES | cell line | assay | conditions | measurement | result |
| --- | --- | --- | --- | --- | --- |
| C#C[C@@]1(O)[C@@H](CO)O[C@@H](n2cc(F)c3c(N)ncnc32)[C@@H]1O | 786-0 | cell growth, SRB | – | TGI | 2.84 µM |
